Published values of several laboratories.
Numbers after ± are the reported error.
UniProt P25822, sequence (whole entry, looked up): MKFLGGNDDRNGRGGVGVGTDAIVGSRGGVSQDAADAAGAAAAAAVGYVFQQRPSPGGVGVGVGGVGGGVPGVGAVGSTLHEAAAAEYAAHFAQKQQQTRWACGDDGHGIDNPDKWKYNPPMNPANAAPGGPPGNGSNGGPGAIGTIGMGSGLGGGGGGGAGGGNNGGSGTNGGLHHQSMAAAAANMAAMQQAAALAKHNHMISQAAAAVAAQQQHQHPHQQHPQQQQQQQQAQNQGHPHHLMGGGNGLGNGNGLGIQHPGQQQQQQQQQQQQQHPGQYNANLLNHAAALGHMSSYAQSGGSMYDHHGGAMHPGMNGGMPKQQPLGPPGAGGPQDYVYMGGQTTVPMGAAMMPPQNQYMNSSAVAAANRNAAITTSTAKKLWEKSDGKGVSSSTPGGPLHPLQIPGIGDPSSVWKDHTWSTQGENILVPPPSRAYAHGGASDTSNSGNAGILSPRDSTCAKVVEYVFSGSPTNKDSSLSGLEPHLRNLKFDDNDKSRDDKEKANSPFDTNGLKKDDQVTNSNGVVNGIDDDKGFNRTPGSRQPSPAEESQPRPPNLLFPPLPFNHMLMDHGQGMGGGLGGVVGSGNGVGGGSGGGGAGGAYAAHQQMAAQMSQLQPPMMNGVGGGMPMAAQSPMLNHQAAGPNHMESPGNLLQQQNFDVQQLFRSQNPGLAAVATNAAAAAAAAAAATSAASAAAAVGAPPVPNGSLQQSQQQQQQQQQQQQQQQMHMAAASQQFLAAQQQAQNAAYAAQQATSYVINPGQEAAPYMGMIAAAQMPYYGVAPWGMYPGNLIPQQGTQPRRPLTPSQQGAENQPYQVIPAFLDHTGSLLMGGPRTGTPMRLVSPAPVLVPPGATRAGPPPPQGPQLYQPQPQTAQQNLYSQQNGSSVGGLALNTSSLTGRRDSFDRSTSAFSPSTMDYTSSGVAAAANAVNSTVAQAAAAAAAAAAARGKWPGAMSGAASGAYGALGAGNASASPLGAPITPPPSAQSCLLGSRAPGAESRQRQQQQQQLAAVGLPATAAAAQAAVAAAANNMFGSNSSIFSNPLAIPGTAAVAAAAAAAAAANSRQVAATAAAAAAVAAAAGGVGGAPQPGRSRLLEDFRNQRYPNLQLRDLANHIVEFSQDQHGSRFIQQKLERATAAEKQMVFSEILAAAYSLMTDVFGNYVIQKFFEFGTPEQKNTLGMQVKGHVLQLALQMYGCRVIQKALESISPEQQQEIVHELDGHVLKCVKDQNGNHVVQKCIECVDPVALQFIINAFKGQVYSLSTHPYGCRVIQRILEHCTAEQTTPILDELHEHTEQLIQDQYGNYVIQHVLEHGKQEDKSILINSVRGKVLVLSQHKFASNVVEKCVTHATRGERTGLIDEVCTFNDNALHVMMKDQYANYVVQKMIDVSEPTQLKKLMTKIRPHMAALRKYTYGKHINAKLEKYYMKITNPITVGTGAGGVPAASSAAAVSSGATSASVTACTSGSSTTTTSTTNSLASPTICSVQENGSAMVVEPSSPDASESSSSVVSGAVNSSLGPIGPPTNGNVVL
UniProt O60656, sequence (whole entry, looked up): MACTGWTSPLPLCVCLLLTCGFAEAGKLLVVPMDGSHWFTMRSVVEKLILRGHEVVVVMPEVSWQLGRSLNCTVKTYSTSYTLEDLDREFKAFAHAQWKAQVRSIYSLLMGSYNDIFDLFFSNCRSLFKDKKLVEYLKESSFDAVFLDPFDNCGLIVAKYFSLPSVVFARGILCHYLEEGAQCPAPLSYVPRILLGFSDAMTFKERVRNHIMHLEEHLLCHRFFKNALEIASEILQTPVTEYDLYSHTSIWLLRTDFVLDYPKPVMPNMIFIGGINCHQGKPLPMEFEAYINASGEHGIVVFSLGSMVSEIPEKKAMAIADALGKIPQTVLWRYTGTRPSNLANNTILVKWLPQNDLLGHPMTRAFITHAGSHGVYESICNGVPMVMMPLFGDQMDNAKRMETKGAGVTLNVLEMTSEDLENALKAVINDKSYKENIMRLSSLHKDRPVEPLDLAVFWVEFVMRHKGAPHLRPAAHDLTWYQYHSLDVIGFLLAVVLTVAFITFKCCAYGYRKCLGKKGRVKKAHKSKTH
UniProt P0A8W2, sequence (whole entry, looked up): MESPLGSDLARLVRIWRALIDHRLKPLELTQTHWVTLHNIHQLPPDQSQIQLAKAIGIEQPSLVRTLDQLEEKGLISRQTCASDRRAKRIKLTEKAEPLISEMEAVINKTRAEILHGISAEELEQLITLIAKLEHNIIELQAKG
UniProt P52926, sequence (whole entry, looked up): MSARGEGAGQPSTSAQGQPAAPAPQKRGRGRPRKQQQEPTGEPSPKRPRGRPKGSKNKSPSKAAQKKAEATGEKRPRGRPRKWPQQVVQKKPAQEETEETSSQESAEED
UniProt D2W6T1, sequence (whole entry, looked up): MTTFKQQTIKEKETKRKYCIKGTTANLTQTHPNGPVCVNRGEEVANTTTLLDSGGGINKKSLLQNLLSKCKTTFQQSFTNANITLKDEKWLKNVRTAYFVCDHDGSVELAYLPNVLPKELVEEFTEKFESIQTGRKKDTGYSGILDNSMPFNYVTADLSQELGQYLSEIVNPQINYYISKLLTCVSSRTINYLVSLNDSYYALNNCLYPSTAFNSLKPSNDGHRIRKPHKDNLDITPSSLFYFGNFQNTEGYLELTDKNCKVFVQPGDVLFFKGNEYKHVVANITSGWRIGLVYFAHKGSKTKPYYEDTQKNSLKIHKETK

`CCCCGGATCCTGACGGTAACCAAATGCAGCAATACATTTGTTTTAGCAATACAATTGCTGCACACTATTCTAAAAGCCGCATAATATCTTAGCAAGCTAATTATAAGGAGATGAAATTGGAATCGCCACTAGGTTCTGATCTGGCACGGTTGGTGCGCATATGGCGTGCTCTGATAGACCATCGTCGACGGG (dsDNA)`: binding “binds” (slyA full length assumed (Escherichia coli, UniProt P0A8W2); EMSA; double-stranded DNA, one strand shown).
`CATTTTCCTCACCCCTATCTAAATGTTTATAACTTTAATTCTCCAACCTAGAGTTGGTTCAAATCTAGGTTGTCAACCTTAGGTTGAATGCACAATATATAAACTTTGCGCCACAGATATGGGTAGGTGATGAATATG (dsDNA)` — result for binding: “binds” (HTH arsR-type domain-containing protein (Pyrococcus furiosus, UniProt Q8U4J2); EMSA; double-stranded DNA, one strand shown).
With `CGGTNGATTC (ssDNA; THF abasic at position 5)` the Kd was 0.07 µM (yedK 2-222 E105A (Escherichia coli, UniProt P76318); ITC).
`CTGTGCTCA (ssDNA)`: binding “binds” (SF3 helicase domain-containing protein 40-370 (Saccharolobus islandicus, UniProt Q54324); solid-state NMR; single-stranded DNA; together with: Mg2+ 10 mM).
The Ka of `ATATTCGCGATTATT (dsDNA)` is reported as 5.2e+07 M⁻¹ (HMGA2 full length assumed (Homo sapiens, UniProt P52926); EMSA; double-stranded DNA, one strand shown).
`GGTGCGCATAATGTATATTATGTTAAAT (dsDNA (Escherichia coli))` gave a K1/2 of 10 nM (xerD full length assumed (Escherichia coli, UniProt P0A8P8); EMSA; double-stranded DNA, one strand shown).
For `GGGAGGGAGGGAGAGGGA (ssRNA)`, the K1/2 was 100 nM (EXOSC3 fragment (Homo sapiens); ELISA; 300 nM).
Under binding, `TGGAACGGAATTCT (dsDNA; blunt, 5mC, 5-BrdU)` is recorded as “binds” (TET1 1-321 (Naegleria gruberi, UniProt D2W6T1); X-ray crystallography; double-stranded DNA, one strand shown).
For `CGGACACTGGTATAAACATGCACCGGCTTTCAATTCTATAAGAGATTATCTCAGTCTTATTGTCGAGGAGTAGTGGTAGGAGTGATACCTTTCAATTCTATAAGAGATTATCGGAAGAGACAAGACTCTACAGTACAATATGCCCCAGATG (dsDNA (Sulfolobus solfataricus))`, binding read “binds” (CRISPR-associated protein full length assumed (Saccharolobus solfataricus, UniProt Q97ZW9); competition; double-stranded DNA, one strand shown; stronger binding).
With `UGT1A9 (Homo sapiens, UniProt O60656)` the Vmax/Km was 197 µL/min/mg (O=C(/C=C/c1ccccc1)c1ccc(O)cc1; steady-state kinetics; pH 7.4, 37 °C).
With `GGGAGACCUAGCCUCAUAUAAUCGUUGUCCAGAAUUGUAUAUAUUCGUAGCAUAAGUUUUCCAAACAUUAUUUUGUUGUCGAAAAUUGUACAUAAGCCAAUUAAGCCGCUAAUUCU (ssRNA)` the K1/2 was 20 nM (pum 1093-1426 (Drosophila melanogaster, UniProt P25822); EMSA; with tRNA, heparin).
With `GAGUUGAGUUGAGUUGAGUUGAGUUGAGUUGAGUUGAGUUGAGUUGAGUUGAGUU (ssRNA; single strand)` the Kd was 0.00025 ± 5e-05 µM (mtrB full length assumed D39A (Bacillus subtilis, UniProt P19466); filter binding; together with: L-tryptophan 1 mM).
`GGGAGAUUAAUUUGAAUACAAUGCAAUUCUCGAGGACUGAAGUUUCUCGCAAUUAAAAUUUAUCAGUUUUACUUUCUGCUCUCUGGAAACGCCUGCUUCUUUUUUACCUGAGAGCAUUUUUUCGCAUUCUGAUUUCGUUAGUUUAGAUUUUGAAUAUCUUGUCCAGUUAGUAGGAGUGCCACCUUCCUUUUCAAUAGUGGCGGUAAUUUUAUACAU (ssRNA)` — result for binding: “binds” (hfq full length assumed (Escherichia coli, UniProt P0A6X3); EMSA; together with: Mg2+ 1 mM).
For `AAACTTCGCAAGGCTGTACCCTTGCAATTCTCTTTTGAGTTGTTCCTGCAAATGCTTCAAGATGTTCTGCTAGTGCTTTCTTTATGCGTACTTGCAATTCTCTTTTGAGTTGTTCGCTGCTGCTGGAATTGCTG (dsDNA)`, binding read “binds” (Uncharacterized protein full length assumed (Hyperthermus butylicus, UniProt A2BLH2); trypsin protection; double-stranded DNA, one strand shown).
The Kd of `CTGGAGTACAATTCCATTCCATTCCATTCCATTCCATTCCATTCCATTCCATTCCATTCCATTCCATTCCATTCCATTCCATTCCATTCCTAACTTTCTA (dsDNA)` is reported as 1.02 µM (F2 alpha-thrombin (Homo sapiens); ITC; double-stranded DNA, one strand shown; pH 6.0).

Repeated from above:
`CTGTGCTCA (ssDNA)`: binding “binds” (SF3 helicase domain-containing protein 40-370 (Saccharolobus islandicus, UniProt Q54324); solid-state NMR; single-stranded DNA; together with: Mg2+ 10 mM).
The Ka of `ATATTCGCGATTATT (dsDNA)` is reported as 5.2e+07 M⁻¹ (HMGA2 full length assumed (Homo sapiens, UniProt P52926); EMSA; double-stranded DNA, one strand shown).
